Assay results pooled from the literature.
Each numbered part is a random draw from the data of one study; scales do not carry over between parts.
Chain of UniProt Q6ZP01 (810-923, looked up): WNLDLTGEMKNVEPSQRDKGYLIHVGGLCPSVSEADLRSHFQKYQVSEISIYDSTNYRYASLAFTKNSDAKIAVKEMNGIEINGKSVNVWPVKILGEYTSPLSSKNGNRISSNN
Chain of UniProt O15294 (whole entry, looked up): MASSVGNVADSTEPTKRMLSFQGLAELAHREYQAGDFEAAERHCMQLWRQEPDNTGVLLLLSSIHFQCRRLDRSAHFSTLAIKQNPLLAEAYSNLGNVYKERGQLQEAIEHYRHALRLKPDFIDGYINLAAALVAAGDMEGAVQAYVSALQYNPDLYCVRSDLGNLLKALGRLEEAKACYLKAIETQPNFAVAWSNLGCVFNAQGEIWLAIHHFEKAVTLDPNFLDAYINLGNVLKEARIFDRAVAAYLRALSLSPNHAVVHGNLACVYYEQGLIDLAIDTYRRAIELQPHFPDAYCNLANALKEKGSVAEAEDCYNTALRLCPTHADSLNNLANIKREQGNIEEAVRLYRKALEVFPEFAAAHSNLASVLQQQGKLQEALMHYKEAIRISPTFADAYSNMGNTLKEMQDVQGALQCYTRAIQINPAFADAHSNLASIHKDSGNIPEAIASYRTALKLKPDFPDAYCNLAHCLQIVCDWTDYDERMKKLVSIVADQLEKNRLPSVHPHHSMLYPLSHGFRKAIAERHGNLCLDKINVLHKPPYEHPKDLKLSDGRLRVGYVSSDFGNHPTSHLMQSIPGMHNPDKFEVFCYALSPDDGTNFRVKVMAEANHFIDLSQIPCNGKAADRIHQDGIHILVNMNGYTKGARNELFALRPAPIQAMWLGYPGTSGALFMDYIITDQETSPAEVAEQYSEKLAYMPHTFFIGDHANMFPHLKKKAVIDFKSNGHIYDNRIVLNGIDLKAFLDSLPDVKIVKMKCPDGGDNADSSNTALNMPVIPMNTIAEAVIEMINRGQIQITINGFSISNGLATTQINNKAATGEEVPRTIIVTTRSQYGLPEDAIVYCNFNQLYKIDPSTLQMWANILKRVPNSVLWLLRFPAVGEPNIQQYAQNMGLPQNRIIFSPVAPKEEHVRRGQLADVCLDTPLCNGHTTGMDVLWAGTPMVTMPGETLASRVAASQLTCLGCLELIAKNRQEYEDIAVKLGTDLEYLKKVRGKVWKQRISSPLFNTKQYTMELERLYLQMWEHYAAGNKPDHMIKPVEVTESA

Study 1 — technique: RNA Bind-n-Seq; form: RNA; matrix: in vitro; tested at: not given; baseline: input RNA pool; direction: higher = stronger binding; endpoint: bound/input enrichment
Target: RING finger protein unkempt homolog, zinc fingers 1-6, GST-SBP tag (UNK, Homo sapiens, UniProt Q9C0B0, residues 30-357)
Setting: RNA with constant flanks, human and mouse sites, ends assumed
Construct (chain): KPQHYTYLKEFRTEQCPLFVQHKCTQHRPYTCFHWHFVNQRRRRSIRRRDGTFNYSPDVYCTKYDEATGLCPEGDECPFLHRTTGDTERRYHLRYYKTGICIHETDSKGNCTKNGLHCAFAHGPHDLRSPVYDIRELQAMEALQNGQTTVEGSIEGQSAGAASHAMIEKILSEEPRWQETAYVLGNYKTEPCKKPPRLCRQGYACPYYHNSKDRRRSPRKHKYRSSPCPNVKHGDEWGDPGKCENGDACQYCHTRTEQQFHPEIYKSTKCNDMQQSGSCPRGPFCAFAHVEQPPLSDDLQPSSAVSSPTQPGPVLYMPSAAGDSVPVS
Oligonucleotide = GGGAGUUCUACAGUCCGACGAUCUCUUGGUCUCCAAGUCCUGCACCUUACUUUGAAACACCACUGGCUCCCUUUCCCAAUGGUAGUUUUGUGAAUGGCUUUAGUUCACCAGGAUCUUACAAAACAAAUGCUGCUGCUAUGAAUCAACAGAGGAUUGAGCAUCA; result = 0.428 ratio
Oligonucleotide = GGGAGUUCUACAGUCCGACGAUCUGGCCACCUCCUCCUCAGAGUCUCUUCCCAAAAGAAUCCCCUAGCCAGGAUAAUGGGUGGCUUAGUAGAGGCUCAGGGAAGGAACAGGGAGAAGGGUGGCUGUGAGCUCAAGUCCCCCUCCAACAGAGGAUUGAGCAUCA; result = 0.0927 ratio
Oligonucleotide = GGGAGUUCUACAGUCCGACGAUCUCCUCCCUGGGAGCGUUCGCGCUCUGGGUCACUGGAUUGUUUCGUGUUUAUGUGUGAUUGUACCAAGGAACUUAGCCUCAUGUAGCAUGUACAGGGUUGUAAUGGUGACCCAGCAGCGAGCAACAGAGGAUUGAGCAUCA; result = 0.182 ratio
Oligonucleotide = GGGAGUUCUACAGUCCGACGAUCGAGUGCCCCAUGUUCACCCCGCCUGGAGGAGAGACAGUUGAGCAGGUAAAGAUGCGCGGAAAGGAUUUCUUUGAUUUCAUUUGUCAGCUAAUCCUGGGCAAGGCAGGGCAGAGAGAAAGCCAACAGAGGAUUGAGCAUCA; result = 0.169 ratio
Oligonucleotide = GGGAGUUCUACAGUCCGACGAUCUUAGCUUUGUUAAAUGUAGCAACUCAGGGAGUUCAUUUAUGGGACUUGCAAGACAGAGUUUUAGUAAGAAAGUAUCAAGGUGUUACACAAGGGUUUUAUACAAUUCAUUCAUGUUUUGGACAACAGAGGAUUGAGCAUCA; result = 1.44 ratio
Oligonucleotide = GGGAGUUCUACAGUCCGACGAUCGUCUGACCGCGGCGUCGGGACCUGGUUUCCGGGCAUGAGCUGAGAGCACCACGCCGAGGCCACGAGUAUUUCAUAGACAUUGAUGGAAGCAGAAACCAAAACUCUUCCCCUGGAGAAUGCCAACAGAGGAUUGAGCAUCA; result = 0.0683 ratio
Oligonucleotide = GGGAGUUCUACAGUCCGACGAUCUUUCUGGUAAAUUCAUGUCAGUAAUUUGUUGAAGAGUUAACAAGAAAAGGUCUUUCUAGAUUGUGUCUAAGAUGAAAUAAAAUGUAACUUUUGCUGCAGUGGUAUGUUUCUUUUGGAGUACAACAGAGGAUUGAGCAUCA; result = 0.234 ratio
Oligonucleotide = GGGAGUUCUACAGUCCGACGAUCACAAGCUUAUCUCCUCUCCCUACCCUAAGCAACUCCUCUUUAUCUGAGCUAAGGCUUUUGAUCGUGGGGACGGGGCAUUGACCAACACUGGAGGCGCCGGCUGCAACUGUUUUAUCAGAGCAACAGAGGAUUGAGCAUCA; result = 0.0859 ratio

Study 2 — technique: protein binding microarray; form: double-stranded DNA, one strand shown; matrix: in vitro; tested at: not given; baseline: not given; direction: higher = stronger binding; endpoint: E-score
Target: Histone acetyltransferase KAT6A, both winged helices, GST fusion (KAT6A, Homo sapiens, UniProt Q92794, residues 1-181)
Setting: 8-mer, flanks averaged, mean of 2 arrays, mostly near background
Residues (chain): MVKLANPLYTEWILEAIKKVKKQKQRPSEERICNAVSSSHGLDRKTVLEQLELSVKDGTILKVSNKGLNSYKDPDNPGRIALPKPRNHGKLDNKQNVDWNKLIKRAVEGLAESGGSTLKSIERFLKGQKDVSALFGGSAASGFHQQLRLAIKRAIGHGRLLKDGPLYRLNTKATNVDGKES
Oligonucleotide = AATGTGGT; result = -0.11
Oligonucleotide = AAAGAAGC; result = 0.013
Oligonucleotide = GTCACCGA; result = -0.0749
Oligonucleotide = ACGTGGTC; result = -0.181
Oligonucleotide = ACTAAGGC; result = -0.0666
Oligonucleotide = GACCCGTA; result = 0.178
Oligonucleotide = GGAAATAC; result = -0.087
Oligonucleotide = ACCTCGTC; result = -0.0176

Further values, each from its own experiment
Molecule = QDHTHFFHVVTNHHH; target = UDP-N-acetylglucosamine--peptide N-acetylglucosaminyltransferase 110 kDa subunit (OGT, Homo sapiens, UniProt O15294); test = binding, phage display NGS; system = peptide; how to read = baseline: input library; endpoint = minimum log2 enrichment ratio; result = 3.44
Molecule = AAAAAAAA (biotin); target = RNA-binding protein 44, RRM domain (RBM44, Homo sapiens, UniProt Q6ZP01, residues 810-923); test = protein domain microarray; system = RNA, in vitro; setting = not given, poly(A) 8-mer RNA, whole probe, immobilized GST-fusion domains, most near background; how to read = baseline: GST loading signal, higher = stronger binding; endpoint = signal ratio; result = 0.0448

Repeated from above (study 2):
Oligonucleotide = GACCCGTA; result = 0.178
Oligonucleotide = GGAAATAC; result = -0.087
Oligonucleotide = ACCTCGTC; result = -0.0176
